# Experimental data pooled from the literature.
# Several values in a cell are separate wells, animals, samples, runs or records. Numbers after ± are the reported error.
SMILES,organism,assay,system,setting,scale,measurement,value
Cc1c2c(nn1C)CSCc1cc(n(C)n1)CSc1cc(c3ccccc3c1)OCCCc1c(C(=O)O)n(C)c3c-2c(Cl)ccc13,Staphylococcus aureus,"label-free quantitative proteomics, measured: SAOUHSC_01833 protein",SA113,concentration not given,relative to: untreated control,log2 fold change,5.55
CS(=O)(=O)CCCn1c(Cn2c(=O)n(CC(F)(F)F)c3ccncc32)cc2cc(Cl)ccc21,respiratory syncytial virus,RT-qPCR,"hospitalized infants 1-24 months, nasal swab","oral, 2, 1.5 or 1 mg/kg daily, day 14, low dose by age cohort",relative to: placebo,LS mean difference vs placebo,-0.35 log10 copies/mL
CC(=O)N[C@H]1[C@@H](O[C@@H]2O[C@H](C[C@@H](O)[C@H]3O[C@@H](n4ccc(=O)[nH]c4=O)[C@H](O)[C@@H]3O)[C@H](O)[C@H](O)[C@H]2NC(=O)/C=C/CCCCCCCCCC(C)C)O[C@H](CO)[C@@H](O)[C@@H]1O,Saccharomyces cerevisiae,alamar blue,BY4742,,,MIC50,1.2 ± 0.033 mg/L
C=C(CN(C(=O)c1c(C(F)F)nn(C)c1F)C1CC1)c1ccc(Cl)cc1Cl,Ustilaginoidea virens,,,1.56 mg/L,,colony diameter,5 mm
C[C@H](CCC(=O)O)[C@H]1CC[C@H]2[C@@H]3C[C@H](O)[C@@H]4C[C@H](O)CC[C@]4(C)[C@H]3CC[C@]12C,Bovine alphaherpesvirus 1,viral replication,MDBK,,,IC50,0.49 µM
COC(=O)c1ccc(S(=O)(=O)N(Cc2ccc(Cl)cc2)c2cc(C3CCCCC3)nc3ccccc23)cc1,Schistosoma mansoni,microscopic viability scoring,newly transformed schistosomula,"10 µM, 72 h, prescreen",,viability reduction,9.4%
COc1cc(C#CC(=O)c2ccccc2)ccc1O,Pseudomonas aeruginosa,,,"10 µM, 24 h",relative to: untreated,rhamnolipid production,31%
CC1(C)SC2C(NC(=O)C(NC(=O)C3=C(O)C(Cc4ccc([N+](=O)[O-])cc4)NC3=O)c3ccccc3)C(=O)N2C1C(=O)O (centres unmarked),Escherichia coli,broth microdilution,"ATCC 35218, low-level TEM-1",with: clavulanic acid 6 µg/mL,,MIC,50 mg/L
Nc1ncnc2c1ncn2[C@@H]1O[C@@H]2COP(=O)(O)O[C@H]3[C@@H](O)[C@H](n4cnc5c(=O)[nH]cnc54)O[C@@H]3COP(=O)(O)O[C@H]2[C@H]1O,West Nile virus,"RNA sequencing, measured: peptide ligand-binding receptors R-HSA-375276",HFF-1 cells,"concentration not given, upregulated pathway",relative to: WNV-infected untreated cells,fold enrichment,2.66
N=C(N)NCCC[C@H](NC(=O)CN)C(=O)N[C@@H](Cc1c[nH]c2ccccc12)C(=O)N[C@@H](CCCNC(=N)N)C(=O)N[C@@H](Cc1c[nH]c2ccccc12)C(=O)N[C@@H](Cc1c[nH]c2ccccc12)C(=O)N[C@@H](Cc1c[nH]c2ccccc12)C(=O)N[C@@H](CCCNC(=N)N)C(=O)N[C@@H](Cc1c[nH]c2ccccc12)C(=O)N[C@@H](CCCNC(=N)N)C(=O)N[C@@H](Cc1c[nH]c2ccccc12)C(N)=O,Candida albicans,broth microdilution,"SP3903, RPMI 1640-MOPS","48 h, 30 °C",,MIC,4 µM
CN[C@H](CC(C)C)C(=O)N[C@H]1C(=O)N[C@@H](CC(N)=O)C(=O)N[C@H]2C(=O)N[C@H]3C(=O)N[C@H](C(=O)N[C@H](C(=O)O)c4cc(O)cc(O)c4-c4cc3ccc4O)[C@H](O)c3ccc(c(Cl)c3)Oc3cc2cc(c3O[C@@H]2O[C@H](CO)[C@@H](O)[C@H](O)[C@H]2O[C@H]2C[C@](C)(N)[C@H](O)[C@H](C)O2)Oc2ccc(cc2Cl)[C@H]1O,Staphylococcus aureus,,"CAAS-2019-CAAS-2019-09 clinical blaZ-resistant isolate, PBS",,,MBC,4 mg/L
O=C1NC2CCCCC2N=C1c1ccccc1 (centres unmarked),Schistosoma mansoni,microscopic viability scoring,newly transformed schistosomula,"10 µM, 72 h, prescreen",,viability reduction,14.3%
C[C@]12CC[C@H](O)C[C@H]1CC[C@@H]1[C@@H]2[C@H](O)C[C@]2(C)[C@@H](c3ccc(=O)oc3)CC[C@]12O,Bovine alphaherpesvirus 1,viral replication,MDBK,,,IC50,0.39 µM
C[Si](C)(C)C#Cc1ccc(C#C[Si](C)(C)C)cc1,Schistosoma mansoni,microscopic viability scoring,newly transformed schistosomula,"10 µM, 72 h, prescreen",,viability reduction,17.9%
C[C@@H](O[C@H]1OCCN(Cc2n[nH]c(=O)[nH]2)[C@H]1c1ccc(F)cc1)c1cc(C(F)(F)F)cc(C(F)(F)F)c1,Human immunodeficiency virus 1,viral replication,"PBMC, subtype F isolate from Brazil, R5, NSI",,,IC50,19.9 µM
NC(=O)c1nc(F)c[nH]c1=O,Dengue virus,viral replication,"BHK-21, DENV3",120 h,,EC50,13 µM
Cn1c(=O)ccc2ccc(F)c(CCNC[C@H]3CN(c4cnc5c(n4)NC(=O)CO5)C(=O)O3)c21,Achromobacter spp.,,,,,MIC90,0.12 mg/L
O=C1C=CC2(C=C1)CNC(=O)C2(Cl)Cl,Schistosoma mansoni,microscopic viability scoring,newly transformed schistosomula,"10 µM, 72 h, prescreen",,viability reduction,20%
COc1cnc(OC)n2nc(NS(=O)(=O)c3c(OCC(F)F)cccc3C(F)(F)F)nc12,Arabidopsis thaliana,,"Col-0, seed germination, dark","50 µg/mL, 7 days, 22 °C",,root length inhibition,100%
COc1ccc(C[C@H](NC(=O)[C@H](C)NC(=O)CN2CCOCC2)C(=O)N[C@@H](Cc2ccccc2)C(=O)C2(C)CO2)cc1 (stereo in doubt),Plasmodium falciparum,parasite growth,various incl. drug-resistant strains,,,IC50,< 0.05 µM
Oc1cccc(NCC(F)(F)C(F)(F)C(F)(F)C(F)(F)C(F)(F)C(F)(F)F)c1,Schistosoma mansoni,microscopic viability scoring,newly transformed schistosomula,"10 µM, 72 h, prescreen",,viability reduction,13.8%
CC[C@H](C)[C@H](NC(=O)[C@H](C)NC(=O)[C@H](CCCCN)NC(=O)[C@H](CC(C)C)NC(=O)[C@H](C)NC(=O)[C@@H](NC(=O)[C@H](Cc1c[nH]cn1)NC(=O)[C@H](CC(C)C)NC(=O)[C@@H](NC(=O)[C@@H](NC(=O)[C@H](CCCCN)NC(=O)[C@H](C)NC(=O)[C@H](C)NC(=O)[C@H](CO)NC(=O)[C@H](CCCCN)NC(=O)[C@H](Cc1ccccc1)NC(=O)[C@@H](NC(=O)[C@H](CCCCN)NC(=O)[C@H](CC(C)C)NC(=O)[C@H](Cc1ccccc1)NC(=O)[C@H](CO)NC(=O)[C@H](CCCCN)NC(=O)[C@H](Cc1c[nH]c2ccccc12)NC(=O)[C@H](CCCCN)NC(C)=O)[C@@H](C)O)[C@@H](C)O)C(C)C)[C@@H](C)O)C(=O)N[C@@H](CO)C(=O)N[C@@H](CO)C(N)=O,Klebsiella pneumoniae,,ATCC 1706,,,MBC range,16 mg/L
Cn1cc2c3c1C(=O)C(N)=CC3=NCC2,Saccharomyces cerevisiae,"cell growth, liquid culture",BY4741,"100 µM, 24 h",,inhibition,3.2%
C[C@@H]1C[C@H](O)[C@]2(O)O[C@@H]3C[C@@]4(C=O)[C@@H](CC[C@@H]5[C@@H]4CC[C@]4(C)[C@@H](C6=CC(=O)OC6)CC[C@]54O)C[C@H]3O[C@@H]2O1,Schistosoma mansoni,microscopic viability score,adult worms,72 h,,IC50,0.37 µM
Nc1ncnc2c([C@@H]3N[C@H](CO)[C@@H](O)[C@H]3O)c[nH]c12,Rhinovirus A,viral replication,HRV2 HGP,29.6 µM,,inhibition,77.5%
CC(C)C[C@H](NC(=O)[C@H](CCN)NC(=O)[C@H](CCN)NC(=O)[C@@H](Cc1ccccc1)NC(=O)[C@H](CC(C)C)NC(=O)[C@H](CCN)NC(=O)[C@H](CCN)NC(=O)[C@@H](CCN)NC(=O)[C@@H](N)CSCCOC(=O)c1ccc(C(C)(C)C)cc1)C(N)=O,Acinetobacter calcoaceticus,BHI agar spot plating,,"24 h, 37 °C",,MBC,32 µM
COc1ccc(S(=O)(=O)Nc2ccc3c(c2)C(=O)C(=O)c2cc(NS(=O)(=O)c4ccc(OC)c(OC)c4)ccc2-3)cc1OC,Schistosoma mansoni,microscopic viability scoring,newly transformed schistosomula,"10 µM, 72 h, prescreen",,viability reduction,26.7%
[2H]C([2H])([2H])C1(C([2H])([2H])[2H])NC(=O)N(c2ccc(F)c(C(F)(F)F)c2)C1=O,Schistosoma mansoni,,"adult, infected NMRI mice","oral, 100 mg/kg single dose",,worm burden reduction,98%
O=C(CCCn1c(SCCOc2ccccc2)nc2ccccc21)N1CCCC1,Schistosoma mansoni,microscopic viability scoring,newly transformed schistosomula,"10 µM, 72 h, prescreen",,viability reduction,0%
CC(C)[C@H](NC(=O)[C@H](CCCNC(=N)N)NC(=O)[C@H](Cc1c[nH]c2ccccc12)NC(=O)[C@H](CCCNC(=N)N)NC(=O)[C@H](Cc1c[nH]c2ccccc12)NC(=O)[C@H](Cc1c[nH]c2ccccc12)NC(=O)[C@H](Cc1c[nH]c2ccccc12)NC(=O)[C@H](CCCNC(=N)N)NC(=O)[C@H](Cc1c[nH]c2ccccc12)NC(=O)[C@@H](N)CCCNC(=N)N)C(N)=O,Candida albicans,broth microdilution,"CGMCC 2.209, RPMI 1640-MOPS","48 h, 30 °C, with: ZnCl2 8 µM",,MIC,16 µM
C[C@]12CC[C@@H]3c4ccc(O)cc4CC[C@H]3[C@@H]1CC[C@@H]2O,Arabidopsis thaliana,,shoots,1 µM,,ABA level,45.3 pmol/g dry weight and 43.4 pmol/g dry weight and 41 pmol/g dry weight
COC(=O)N[C@H](C(=O)N1CCC[C@H]1c1ncc(-c2ccc(-c3ccc(-c4cnc([C@@H]5CCCN5C(=O)[C@@H](NC(=O)OC)C(C)C)[nH]4)cc3)cc2)[nH]1)C(C)C,hepatitis C virus,HCV replicon,,"50% effect level, with: IFN-α, ratio 2.5:1",,combination index,0.88 and 0.69
